Experimental data of several laboratories.
Numbered parts are unrelated; each lists some results of a single study.

Block 1
Target: Histone acetyltransferase KAT6A, winged helix 2, GST fusion (KAT6A, Homo sapiens, UniProt Q92794, residues 85-181)
Method: protein binding microarray
Form: double-stranded DNA, one strand shown
Sample: in vitro
Concentration: not given
Notes: 8-mer, flanks averaged, mean of 2 arrays, mostly near background
Reference: not given
Reading: higher = stronger binding
Quantity: E-score
Target sequence (chain): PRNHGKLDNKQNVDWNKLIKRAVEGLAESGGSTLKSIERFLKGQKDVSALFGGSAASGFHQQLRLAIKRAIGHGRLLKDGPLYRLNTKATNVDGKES
TACAGCCA: 0.0639
AACTACTC: 0.00653
GAAGGTCA: -0.156
ACCTCGGC: 0.0554
AGATTACA: 0.0339
AACGATCG: -0.107
AAACTTGT: 0.0726
GTAGGGGA: 0.0531

Block 2
Partner: ARF17 (Arabidopsis thaliana, UniProt Q84WU6)
UniProt Q84WU6, sequence (whole entry, looked up): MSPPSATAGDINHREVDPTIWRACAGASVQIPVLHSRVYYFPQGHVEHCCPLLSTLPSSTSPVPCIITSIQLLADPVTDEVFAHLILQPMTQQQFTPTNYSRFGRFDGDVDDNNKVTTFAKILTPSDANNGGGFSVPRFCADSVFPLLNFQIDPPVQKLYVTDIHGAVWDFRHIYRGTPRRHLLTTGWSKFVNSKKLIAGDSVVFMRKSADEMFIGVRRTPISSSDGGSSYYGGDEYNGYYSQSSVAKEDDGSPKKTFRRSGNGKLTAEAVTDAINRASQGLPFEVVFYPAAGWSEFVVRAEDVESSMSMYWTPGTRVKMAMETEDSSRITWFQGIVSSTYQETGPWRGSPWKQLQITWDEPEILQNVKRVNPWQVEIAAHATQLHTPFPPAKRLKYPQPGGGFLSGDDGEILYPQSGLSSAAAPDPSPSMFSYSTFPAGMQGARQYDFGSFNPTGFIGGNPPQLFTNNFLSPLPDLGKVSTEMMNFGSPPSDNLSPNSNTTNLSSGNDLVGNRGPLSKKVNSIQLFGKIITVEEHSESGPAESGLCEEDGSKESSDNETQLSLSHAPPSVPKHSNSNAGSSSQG
Method: two-hybrid
Notes: weak activation fusion
Reference: out of 4 tests
Reading: higher = firmer interaction
Quantity: positive tests
B1: ARF16 570-670 (Arabidopsis thaliana, UniProt Q93YR9); chain SPCSKKVHDASGLETGHCKVFMESDDVGRTLDLSVLGSYEELSRKLSDMFGIKKSEMLSSVLYRDASGAIKYAGNEPFSEFLKTARRLTILTEQGSESVVV
B2: ARF1 538-665 (Arabidopsis thaliana, UniProt Q8L7G0); chain SRQIRSCTKVHMQGSAVGRAIDLTRSECYEDLFKKLEEMFDIKGELLESTKKWQVVYTDDEDDMMMVGDDPWNEFCGMVRKIFIYTPEEVKKLSPKNKLAVNARMQLKADAEENGNTEGRSSSMAGSR
B3: ARF8 699-811 (Arabidopsis thaliana, UniProt Q9FGV1); chain NSSNQTKNFVKVYKSGSVGRSLDISRFSSYHELREELGKMFAIEGLLEDPLRSGWQLVFVDKENDILLLGDDPWESFVNNVWYIKILSPEDVHQMGDHGEGSGGLFPQNPTHL
B4: ARF7 1030-1164 (Arabidopsis thaliana, UniProt P93022); chain PAQTQRMRTYTKVQKRGSVGRSIDVNRYRGYDELRHDLARMFGIEGQLEDPQTSDWKLVYVDHENDILLVGDDPWEEFVNCVQSIKILSSAEVQQMSLDGNFAGVPVTNQACSGGDSGNAWRGHYDDNSATSFNR
B5: IAA32 (Arabidopsis thaliana, UniProt Q8RYC6); chain MDPNTPADFFKGSSKFHTYYSQTKKGGGVIDLGLSLRTIQHETYLPPARMIGLDGYGELIDWSQPSYNSITQLKSEDTGHQRLAQGYYNNEGESRGKYAYVKVNLDGLVVGRKVCLVDQGAYATLALQLNDMFGMQTVSGLRLFQTESEFSLVYRDREGIWRNVGDVPWKEFVESVDRMRIARRNDALLPF
B6: ARF2 727-859 (Arabidopsis thaliana, UniProt Q94JM3); chain TKTNSSRSCTKVHKQGIALGRSVDLSKFQNYEELVAELDRLFEFNGELMAPKKDWLIVYTDEENDMMLVGDDPWQEFCCMVRKIFIYTKEEVRKMNPGTLSCRSEEEAVVGEGSDAKDAKSASNPSLSSAGNS
B7: ARF12 500-593 (Arabidopsis thaliana, UniProt Q9XID4); chain TEIQNKQFSSSRTCTKVQMQGVTIGRAVDLSVLNGYDQLILELEKLFDIKGQLQTRNQWEIAFTDSDEDKMLVGDDPWPEFCNMVKKIFIQKRR
B8: IAA31 (Arabidopsis thaliana, UniProt Q8H174); chain MEVSNSCSSFSSSSVDSTKPSPSESSVNLSLSLTFPSTSPQREARQDWPPIKSRLRDTLKGRRLLRRGDDTSLFVKVYMEGVPIGRKLDLCVFSGYESLLENLSHMFDTSIICGNRDRKHHVLTYEDKDGDWMMVGDIPWDMFLETVRRLKITRPERY
B1 (ARF16 570-670): 0
B2 (ARF1 538-665): 0
B3 (ARF8 699-811): 0
B4 (ARF7 1030-1164): 0
B5 (IAA32): 2
B6 (ARF2 727-859): 0
B7 (ARF12 500-593): 0
B8 (IAA31): 1

Block 3
Target: Runt-related transcription factor 3, Runt domain (RUNX3, Homo sapiens, UniProt Q13761, residues 53-186)
UniProt Q13761, sequence (53-186, looked up): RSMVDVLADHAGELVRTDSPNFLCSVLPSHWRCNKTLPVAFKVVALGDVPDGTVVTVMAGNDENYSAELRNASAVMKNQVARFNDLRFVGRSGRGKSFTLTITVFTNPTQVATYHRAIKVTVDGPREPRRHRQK
Method: protein-binding microarray
Form: hairpin DNA
Sample: in vitro
Concentration: not given
Notes: whole hairpin DNA, median over replicate spots
Reference: not given
Reading: higher = stronger binding
Quantity: median fluorescence
GAGGCCTGTCGCGGTTGCCCTCCTGGGCAACCGCGACAGGCCTCACACTC (5mC at 18): 6110 a.u.
GAGGCCTGTTGTCGTTGGCCTCCTGGCCAACGACAACAGGCCTCACACTC: 4370 a.u.
CTCAGTTCTGTGGGCCGGACTCCTGTCCGGCCCACAGAACTGAGACACTC (5mC at 28): 4210 a.u.
CTCAGTTCTCTGGGCTGGACTCCTGTCCAGCCCAGAGAACTGAGACACTC: 3880 a.u.
CTCAGTTCTGTGGGCGGGACTCCTGTCCCGCCCACAGAACTGAGACACTC (5mC at 15): 4630 a.u.
GAGCCCTGTCGCGGTTGGCCTCCTGGCCAACCGCGACAGGGCTCACACTC (5mC at 4): 6190 a.u.
GAGGCCTGTTGTGGCTGGCCTCCTGGCCAGCCACAACAGGCCTCACACTC (5mC at 15): 5000 a.u.
GAGGCCTGTCGCGCGTGGCCTCCTGGCCACGCGCGACAGGCCTCACACTC (5mC at 14): 5680 a.u.

Single results of other studies
CC(C)(C)S(=O)(=O)c1ccc2nc3c(n2c1)CCCC3 — remaining compound (mouse, microsomes or S9; 2 µM, 0.5 h): 4.61%
